Measured values gathered from unrelated publications.
A part holds a random share of what one study measured. “And” joins repeats or separate records; there may be more than shown. Positions count from the first letter of the parent shown.

Study 1 — target: CCNA1, cyclin fold, Cln2 fusion (human); technique: yeast growth competition, sequencing; matrix: yeast; notes: weak parent motif; relative to: not given; reading: higher = stronger binding
Parent: INSM1 docking peptide (human); PKAIRKLHFEDEV
Variant	normalised enrichment score
PKRIRKLHFEDEV [A3R]	0.498
PKKIRKLHFEDEV [A3K]	0.496
PKAIRKLHFRDEV [E10R]	0.127
PKAQRKLHFEDEV [I4Q]	1.67
PKAIRKLHFADEV [E10A]	0.567
PKAIRKPHFEDEV [L7P]	-0.0946
PKAIRPLHFEDEV [K6P]	-0.396
PKAIRKLHFWDEV [E10W]	0.3
PKAIGKLHFEDEV [R5G]	-0.482
PKAIRKLHFQDEV [E10Q]	0.432
PKAIRKLHFKDEV [E10K]	0.0581
PKAMRKLHFEDEV [I4M]	1.37
PKAIRWLHFEDEV [K6W]	0.0383
PKAIRKLHFEWEV [D11W]	0.223
PKAIRKLFFEDEV [H8F]	0.0579
PNAIRKLHFEDEV [K2N]	0.388
PKAIRKLHFEQEV [D11Q]	0.568
PKAIRKLHFEDDV [E12D]	0.855
PKAIRKLHFEGEV [D11G]	0.523
PKAIRKLHMEDEV [F9M]	0.155
PKAIRHLHFEDEV [K6H]	0.445
PKAIRKLHFEYEV [D11Y]	0.459
PKPIRKLHFEDEV [A3P]	0.319
PKAIRKLCFEDEV [H8C]	1.05
PKAIRKLHFEDIV [E12I]	0.529

Study 2 — technique: protein binding microarray; molecule type: double-stranded DNA, one strand shown; matrix: in vitro; tested at: not given; relative to: not given; reading: higher = stronger binding
Target: Histone acetyltransferase KAT6A, winged helix 1, GST fusion (KAT6A, Homo sapiens, UniProt Q92794, residues 1-85)
Notes: 8-mer, flanks averaged, mean of 2 arrays, mostly near background
Residues (chain): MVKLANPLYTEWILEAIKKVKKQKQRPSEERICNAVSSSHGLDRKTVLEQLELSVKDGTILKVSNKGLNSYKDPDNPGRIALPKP
Sequence	E-score
CCGAGGCC	0.262
GGTTTCTA	-0.0962
CCTTTTGA	-0.11
AGGCTTAA	-0.0629
ATCATGAT	-0.179
ATCGATAG	-0.153
GGTCCCTA	0.0823
GGTGAGTA	-0.163
ACATACGA	-0.161
TCGGCTCA	0.122
AGGAATAA	-0.187
TAAACAGA	-0.216
CTTCCAAA	-0.148
AAATCGCC	0.0798
CAGAGCAC	-0.129
ACGGTACA	0.0764
CTCCAACC	-0.0469
GACGAGGA	-0.243
ATCAGTCC	-0.124
AATACGAC	-0.101
CACGAGGA	-0.187
CCATGCGG	0.148
AGCCCCTC	-0.14
TCATGCGA	0.0302
ATGTGAAA	-0.0727

Study 3 — technique: RNA Bind-n-Seq; molecule type: RNA; matrix: in vitro; tested at: 20 nM; notes: 6-mer, flanks averaged, single round; with: 150 mM LiCl; relative to: input library; reading: higher = stronger binding
Target: TAR DNA-binding protein 43, full length, His tag (TARDBP, Homo sapiens, UniProt Q13148, residues 1-414)
Sequence	6-mer enrichment (R)
GAUCGC	0.963
UAAGGA	0.911
AUUUGC	1.04
CUGGAG	0.965
UCGGAC	1.04
GAGCCA	0.92
CUCUUU	1.07
CUACAC	0.861
GAAACA	0.811
CCCGUC	0.924
UUCCUG	0.925
AAAAGA	0.794
GCCACA	0.942
CAGAAA	0.809
GCCGAU	0.899
UUUUAA	1.17
CGUGCA	0.941
UAACCA	0.861
UCAUCC	0.852

Study 4 — technique: RNA Bind-n-Seq; molecule type: RNA; matrix: in vitro; tested at: 365 nM; relative to: no-protein control; reading: higher = stronger binding
Target: RNA binding protein fox-1 homolog 2, RRM domain, GST-SBP tag (RBFOX2, Homo sapiens, UniProt O43251-10, residues 100-194)
Notes: natural RNA segment, single round, ends assumed
All sequences stand within: GGGAGUUCUACAGUCCGACGAUC … UGGAAUUCUCGGGUGCCAA
Target sequence (chain): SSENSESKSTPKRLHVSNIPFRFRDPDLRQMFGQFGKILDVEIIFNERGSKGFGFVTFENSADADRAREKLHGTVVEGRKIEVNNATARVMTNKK
Sequence	RBNS enrichment (R)
UGGAUAUCCUCAAUUCUUAAGACAGCUUGUAAAUGUAUUUGUAAAAAUUGUAUAUAUUUUUACAGAAAGUCUAUUUCUUUGAAACGAAGGAAGUAUCGAAUUUACAUUAG	0.396
GCUCCCCCUCGUCCUGACUCAGCUCGGGUGUGUGCAGCAUCAGGCUGUGCCUGCUCCAGAGGCAUGGGCCACCUGGGUAACAGCACACAGCAGAAAAGCACAGAGAGAAA	0.423
UUAAUCUACAGCCACUCUCUACCUUGAGUCUAUCUAUGGUCAGUUGAAGAGUUUUAGAAGAAAUUCUCAUGGAAAUGCCCUAUCCCUGGACCUUCAGCCUCUUCUCUUCC	0.428
AUUUCCCCACAGGGACCCACGCACCUCCCUGUAUCUGCGCAGCUUGCUCGUGUGGCUGGAAGCGCUGUCGAUAAGCUUCACGCACUGGCUUGCCAGUUCUUCAGCUCUAG	0.286
GAAUGAAAUUGUAUUUGUUAAAAUACACACAUUGGAGGACAAGAGCAGAUGACUACUUUUCGAAGUAAUGCUGCUCCUUCCUAAAAGUCUGUUUUCAAUCCUGGUAAUAU	0.294
GCAUGUAUUAUUUCUCCCAUGUAAGGACAAAGGGACAGAUUAUUAUUGUUAUUUCUGAGACAGAGUCUUGCUCUGUAGCUCAGGCUGGAGUGCAGUGGCUCAAUCUCAGC	4.72
ACAAGGACACUUUAAAACCUUAGGAAUUAUAAAAAUGUCUUUGAUAUUAGAUACUCACAAUCAAAGUCUGAUUUAAUGUAAAAAUUAAUAAAAUGUGUCUAUACUUAGCA	1.08
UGUAUGAGAUCUGUGCUGUAAGGCUCCCAGUGUUCCUUCAGCAUUAAUGCUUUCCCACCUGCUCCAAGAGAACUAGCCCUCAACCAGUGCUGCGGCCUGUUCAUAUGCUC	0.568

Study 5 — target: CRIPT, C-terminal peptide; technique: DHFR complementation, deep sequencing; matrix: yeast; relative to: wild type; reading: higher = weaker binding
Notes: single substitutions, model-inferred values
Parent: ERBIN, PDZ domain 1 (human); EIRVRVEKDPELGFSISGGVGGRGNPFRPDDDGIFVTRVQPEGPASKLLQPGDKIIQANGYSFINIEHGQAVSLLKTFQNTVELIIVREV; partner TKNYKQTSV
Variant	binding free energy change [kcal/mol]
G21T	0.414
R38H	0.161
L12I	1.84
G19C	0.966
R28S	0.0393
T81E	-0.0499
K54H	0.127
V36W	0.645
L48W	-0.0455
E7K	-0.212
R28T	-0.0357
G18E	1.31
E89I	0.00672
H68D	1.29
L84R	2.02
N65H	-0.0286
L48I	0.0446

Other studies, line by line
Substance	target	assay	test system	conditions	scale	quantity	result
PhoQ, residues 284 288 289 292 302 303 SIHMAM	PhoP, residues 12 14 15 18 19 LWHSL (Escherichia coli, UniProt P23836)	Sort-seq, measured: YFP reporter	E. coli	PhoQ-PhoP variant library, with: 10 µM Mg2+	relative to: high Mg2+ state, higher = stronger signaling	fold induction	5.72 and 2.18

Repeated from above (study 2):
Sequence	E-score
GGTTTCTA	-0.0962
CCTTTTGA	-0.11
AGGCTTAA	-0.0629
ATCATGAT	-0.179
ATCGATAG	-0.153
GGTCCCTA	0.0823
GGTGAGTA	-0.163
ACATACGA	-0.161
TCGGCTCA	0.122
